Experimental data of several laboratories.
Each numbered part is a random draw from the data of one study; scales do not carry over between parts. Substitutions count along the parent as printed.

Sample 1
Target: RNA binding protein fox-1 homolog 2, RRM domain, GST-SBP tag (RBFOX2, Homo sapiens, UniProt O43251-10, residues 100-194)
Technique: RNA Bind-n-Seq
Form: RNA
Matrix: in vitro
Tested at: 365 nM
Notes: natural RNA segment, single round, ends assumed
Baseline: no-protein control
Reading: higher = stronger binding
Residues (chain): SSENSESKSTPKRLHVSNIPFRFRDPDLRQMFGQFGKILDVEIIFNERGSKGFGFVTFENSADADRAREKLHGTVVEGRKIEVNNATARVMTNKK
`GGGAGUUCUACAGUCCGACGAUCUACUACUAUUACCAAGUCGGCCGGAAACCCAAAAAAGUUAGCAGGCUGGGACCUGCCUGGGCCUGGACCUGGGCCCGAGCAGCUGGGGACUUCACUGUCCAUGGGUCCUAUGGAAUUCUCGGGUGCCAA` — result for “RBNS enrichment (R)”: 0.464.
`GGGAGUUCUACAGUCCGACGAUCCGUCAUUGAGUACCUGAUUUUUAAAAGCAAGCACCCAAAUAAUUCUCUCUAGGGAAUCUCAUUUGUUACAGGUGAGAAGACAGAGGGUUUUAUGGUGCCUGAGUUAGUCCUGGAAUUCUCGGGUGCCAA`: “RBNS enrichment (R)” 0.319.
Under “RBNS enrichment (R)”, `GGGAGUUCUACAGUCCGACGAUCAAGCUUGAAUCUGUGUAGUCUCUGACCCUAAGUGAGAAUGACUUUGGUGUCAGGGUCCUGUGGAGUUGUGCCCCACACUGAGCUCUGUACAGUAUUGCUGCUCAUACACUUGGAAUUCUCGGGUGCCAA` is recorded as 0.413.
`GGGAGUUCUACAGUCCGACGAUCAUUUCCUCUACCUUUCUGCUCUUAAACUGCUUCUCUGCUCUGAGAAGCCCAGCUACCUGCCUUCACUGAAAUAUACCUCAGGCUGAGACGGGCGGGACAGCAGGUCAGUGUGGAAUUCUCGGGUGCCAA`: “RBNS enrichment (R)” 0.242.
Under “RBNS enrichment (R)”, `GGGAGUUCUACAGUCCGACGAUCGUUCGUCUUGAAGAAAGCAUUAAGGUAUGCAUGGAGGUGAUUUAUUUUUAAACAUAACACCUAACCUAACAUGGGUAAGAGAGUAUGGAACUAGAUAUGAGCUGUAUAAGUGGAAUUCUCGGGUGCCAA` is recorded as 27.5.
For `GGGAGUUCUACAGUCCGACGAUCUUAUUGAUAACUGUCAUCAUGAAAUUAUCUCUCAAUAAUAAGAUAAAUAAACUAGCAUAUGAAUCAUUUUGUCUUUGCAUUUUUAAUGAGAAACUAUUAAUAAUCCUGAAUGGAAUUCUCGGGUGCCAA`, “RBNS enrichment (R)” read 2.21.
For `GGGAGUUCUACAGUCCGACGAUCUUAAAGCUAUUUUAAAUGUGUUUUUAUUUGUAAGACAUUACUUAUUAAGAAAUUGGUUAUUAUGCUUACUGUUCUAAUCUGGUGGUAAAGGUAUUCUUAAGAAUUUGCAGUGGAAUUCUCGGGUGCCAA`, “RBNS enrichment (R)” read 0.965.
Under “RBNS enrichment (R)”, `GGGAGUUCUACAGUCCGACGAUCAAAUUACUCAGUAUCCAUGUCACCACCAAGUUGUUGUUUUCAAGCCAGUAUAUUUUUUCAUAACUCCAGUGCUCAGACCUAGAGUAAUAAAGCUUUUCUUACAGAAAACCUGGAAUUCUCGGGUGCCAA` is recorded as 0.801.
For `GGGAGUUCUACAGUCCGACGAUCUUCUACUUAGAAAAACCUAUUGCAGUUAGUUUAUCUUGUAGUAUUCAUCUUUGUAUUCUGAAGAUAAGGUUUGAAUUAAAUUGAUACACACAGAGGGGAACCGAUUUUUUUGGAAUUCUCGGGUGCCAA`, “RBNS enrichment (R)” read 0.755.
`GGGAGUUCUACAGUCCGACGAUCAAAAGUUAAUUUAUGUGACUUGGCAGUUAUUCUAUACAUUUCCUGUCCAUUAAAAAUUUUAAAGGAACAGUUGUGUUUUAUUAUGCUCUAUGUAACCUUUUAGCCUUUAAUGGAAUUCUCGGGUGCCAA`: “RBNS enrichment (R)” 0.56.
`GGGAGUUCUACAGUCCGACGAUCUGCAUGCACAACUUGUUUUCCCUUGUAACAUUCAUGAUCUCAUUUACAACUCUGAUUUUAAAACAAAAAAAUCUUUACAACAAGCUAUAUAGGGACAUACCAGAUGUUGCUGGAAUUCUCGGGUGCCAA`: “RBNS enrichment (R)” 1.52.
For `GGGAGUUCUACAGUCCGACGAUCCCGCAGUUCCCCGCUCUGUACUGUAUUUUGCCAUUUCCCGUAGUCAGGUGUUCUGCAGGGUCUCUUCACAUGAAGCUGCCAAGCGUGAGUCAGCCCAUAAGCAAAGUCAAUGGAAUUCUCGGGUGCCAA`, “RBNS enrichment (R)” read 0.498.

Sample 2
Target: XBP1, bZIP domain (human)
Technique: DHFR protein complementation
Matrix: yeast
Notes: single substitutions, most at no-binding floor
Baseline: wild-type JUN-FOS pair
Reading: higher = stronger binding
Parent: JUN, bZIP domain (human); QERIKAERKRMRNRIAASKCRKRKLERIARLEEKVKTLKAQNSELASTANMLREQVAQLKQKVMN; partner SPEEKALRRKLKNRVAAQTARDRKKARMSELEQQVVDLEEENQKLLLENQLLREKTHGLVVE
`E54D` has a binding fitness of -1.15 natural log.
`M51P` has a binding fitness of -1.48 natural log.
The binding fitness of `L38W` is reported as -1.32 natural log.
`M51D` has a binding fitness of -0.77 natural log.
`R53P` gave a binding fitness of -1.45 natural log.
`V35L` has a binding fitness of -0.852 natural log.
`A57V` has a binding fitness of -1.13 natural log.
For `T48G`, the binding fitness was -1.41 natural log.
With `E54W` the binding fitness was -1.44 natural log.
With `K39P` the binding fitness was -1.51 natural log.
With `M51L` the binding fitness was -0.73 natural log.
With `E44F` the binding fitness was -1.24 natural log.
With `V35H` the binding fitness was -1.46 natural log.
`E54K` gave a binding fitness of -1.42 natural log.
With `A40H` the binding fitness was -0.955 natural log.
`L45P` has a binding fitness of -1.47 natural log.
For `V56N`, the binding fitness was -1.35 natural log.
`E54M` gave a binding fitness of -1.44 natural log.
With `T48N` the binding fitness was -0.833 natural log.

Sample 3
Target: PABPC1L2, full length, GST fusion (mouse, UniProt A0ABA7IW68)
Technique: RNAcompete
Form: RNA
Matrix: in vitro
Tested at: 20 nM
Notes: 7-mer, probes averaged, single round
Baseline: mean of 7-mers
Reading: higher = stronger binding
Residues (chain): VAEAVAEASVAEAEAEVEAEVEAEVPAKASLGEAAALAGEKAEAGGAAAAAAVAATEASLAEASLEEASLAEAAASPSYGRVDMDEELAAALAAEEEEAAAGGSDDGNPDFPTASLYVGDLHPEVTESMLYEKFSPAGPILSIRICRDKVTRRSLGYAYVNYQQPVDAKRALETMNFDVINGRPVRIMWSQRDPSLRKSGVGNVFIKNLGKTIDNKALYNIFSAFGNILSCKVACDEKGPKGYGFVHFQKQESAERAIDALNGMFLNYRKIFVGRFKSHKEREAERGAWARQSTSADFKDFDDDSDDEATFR
With `UAUAUCG` the 7-mer Z-score was -0.224.
With `GACGAGC` the 7-mer Z-score was -0.0264.
For `GGUACUC`, the 7-mer Z-score was -0.13.
The 7-mer Z-score of `ACUUGAG` is reported as -0.0482.
The 7-mer Z-score of `GCAGUCU` is reported as 0.0406.
`AACUGCG` has a 7-mer Z-score of 0.000733.
For `GGCGAAA`, the 7-mer Z-score was 1.21.
With `GGAGCCU` the 7-mer Z-score was -0.144.
For `UGUUGGU`, the 7-mer Z-score was -0.543.
For `UUACUCA`, the 7-mer Z-score was -0.182.
The 7-mer Z-score of `UACGAAU` is reported as -0.13.
With `CCCCACA` the 7-mer Z-score was -0.429.
With `UUCUCAC` the 7-mer Z-score was -0.431.
The 7-mer Z-score of `GACCUCC` is reported as -0.356.
`CACGGCA` gave a 7-mer Z-score of 0.108.
`GGCUAAG` gave a 7-mer Z-score of 0.0623.
`GAUUGAU` gave a 7-mer Z-score of -0.166.
`UUUAUUC` gave a 7-mer Z-score of -0.376.
`CGCUGGU` gave a 7-mer Z-score of -0.0808.
`CUUUCGA` has a 7-mer Z-score of -0.286.
`GCGCGGC` gave a 7-mer Z-score of -0.0844.

Sample 4
Target: RING finger protein unkempt homolog, zinc fingers 1-6, GST-SBP tag (UNK, Homo sapiens, UniProt Q9C0B0, residues 30-357)
Technique: RNA Bind-n-Seq
Form: RNA
Matrix: in vitro
Tested at: not given
Notes: RNA with constant flanks, human-mouse chimeric sites, ends assumed
Baseline: input RNA pool
Reading: higher = stronger binding
Residues (chain): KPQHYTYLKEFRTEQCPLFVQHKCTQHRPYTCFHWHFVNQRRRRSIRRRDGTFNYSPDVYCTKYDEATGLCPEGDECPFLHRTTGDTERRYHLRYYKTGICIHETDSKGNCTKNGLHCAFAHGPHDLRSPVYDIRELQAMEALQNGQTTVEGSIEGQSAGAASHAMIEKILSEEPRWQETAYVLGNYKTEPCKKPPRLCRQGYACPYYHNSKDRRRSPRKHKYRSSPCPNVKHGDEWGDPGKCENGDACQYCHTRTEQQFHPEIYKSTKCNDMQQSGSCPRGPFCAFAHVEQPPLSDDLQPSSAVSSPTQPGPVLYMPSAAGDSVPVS
`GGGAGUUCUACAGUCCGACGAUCUUGAAAACUGAUUCAAGUAAGUUUGAGUAUCACAAUGUUAGCUUUCUAAUUCCAUAAAAGUACUUGGUUUUUACAGUAACCCCACAUCAAUCCAUCAAGCGCCAUUUGUAAAGAGCAACUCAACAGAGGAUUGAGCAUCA` has a bound/input enrichment of 0.594 ratio.
`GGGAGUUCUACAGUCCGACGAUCGAUCCACAGUGGUCUGAGGAGCAACUCAUUGCUGCAAAAUUCUGUUUUGCUGGACUUGUUAUAGGGCAGACUGAAGUGGACAUCAUGAGUCAUGCUACACAAGCUAUUUUUGAAAUUCUGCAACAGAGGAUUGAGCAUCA` gave a bound/input enrichment of 0.167 ratio.
The bound/input enrichment of `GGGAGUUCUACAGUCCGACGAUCAUAUUUCAUAUUGCAAAGAUGUUUACAAGUAUUUUAAUUUAAGUUCAGUGAACUUUUUUGUAGCUGGGUUAAAUCUUUUUAUUUUUAGUAUGGCCUUUGGCAAAGAACACUGUAUUAUUUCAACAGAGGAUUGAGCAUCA` is reported as 1.3 ratio.
`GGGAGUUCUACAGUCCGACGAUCAUGCAGUAUGAGACCAACAGCAUGGACUUCAAAGUUGGGGCAGAUGGGACAGUCUUCGCCACCCGGGAGUUGAAGAUCCCCUCCGAGCAGGUGGCGUUCACGGUGACUGCAUGGGACAGCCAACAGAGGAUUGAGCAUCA` gave a bound/input enrichment of 0.192 ratio.
With `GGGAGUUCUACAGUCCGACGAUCAUCAAGUACUUUGGGGACAUCAUUAGUGUGGGACAGAGACUGUUGCAAGGAGCUCGGAUCUUAGGGAUUCCAGUUAUCAUAACGGAACAAUACCCCAAAGGACUUGGCAGCACCGUUCAACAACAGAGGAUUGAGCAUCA` the bound/input enrichment was 0.189 ratio.
For `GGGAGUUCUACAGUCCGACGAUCUUUGUAUUUAUGCUAAGCACGCGUGCUGGUGGUCUGGGCAUCAAUCUUGCAACUGCUGAUGUAGUCAUUUUGUAUGACUCAGAUUGGAAUCCGCAAGUUGAUCUUCAGGCUAUGGACCGUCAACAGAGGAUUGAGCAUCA`, the bound/input enrichment was 0.108 ratio.
With `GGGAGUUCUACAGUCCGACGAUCUGUAGUUGAUCCCCUGCUCAUUUUUCUUGCUCGGGUUUUUCCUUUAGGAAAAGCCUAAAGAUUAGGUUGUAAGAAAAACAGAAGCCAUGUUUCGAAGACCUGUGUUACAGGUAUUUCGUCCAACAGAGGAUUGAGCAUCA` the bound/input enrichment was 0.127 ratio.
`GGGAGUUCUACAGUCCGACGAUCGUGUCCUGCUUUCAACUUAAAUCACUGAGGCAUCUCUACUGUUCUGUGAGCAUCAGGACUGUAGCGCUGUGUCACCACAUGAGAGUUGUUAAGCAGCCUUUCUGUGGAGGGUGGGAAUGACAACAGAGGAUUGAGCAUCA` gave a bound/input enrichment of 0.0831 ratio.
`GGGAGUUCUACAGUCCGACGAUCAGUGUGCAGGAAUUCAUGACCUUCACGAGUCAACUGAUUGUGGAACGCUCAUCGAAAGGCAGCAGAGCUUCUGUCAAAGAACAAGAGUAUCUUUGCCAUGUCUACGUCCGGAGCGACAGUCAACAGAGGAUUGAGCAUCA` gave a bound/input enrichment of 0.058 ratio.
`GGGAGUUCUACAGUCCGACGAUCUUUGUUUUCAUGUUAAGCACACGUGCUGGUGGUCUGGGCAUCAAUCUUGCAACUGCUGAUGUAGUCAUUUUAUAUGACUCAGAUUGGAAUCCGCAAGUUGAUCUUCAGGCUAUGGACCGUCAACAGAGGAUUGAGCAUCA` has a bound/input enrichment of 0.116 ratio.
The bound/input enrichment of `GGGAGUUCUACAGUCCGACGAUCGUAUACGGUUAUCGAGGAAAGGACUGUAGAGCGAAUGUAUACCUGCUUCCCACAGGGGAGAUAGUUUAUUUCAUUGCAUCAGUAGUAGUCCUGUUUAAUUAUGAGGAGAGGACUCAGCGACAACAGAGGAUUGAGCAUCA` is reported as 1.31 ratio.
